# Published values collected from several papers.
# Lines come from different studies, so protocols differ.
# APP: Amyloid-beta precursor protein (APP, Homo sapiens, UniProt P05067)
# Sequence of UniProt P05067 (whole entry, looked up): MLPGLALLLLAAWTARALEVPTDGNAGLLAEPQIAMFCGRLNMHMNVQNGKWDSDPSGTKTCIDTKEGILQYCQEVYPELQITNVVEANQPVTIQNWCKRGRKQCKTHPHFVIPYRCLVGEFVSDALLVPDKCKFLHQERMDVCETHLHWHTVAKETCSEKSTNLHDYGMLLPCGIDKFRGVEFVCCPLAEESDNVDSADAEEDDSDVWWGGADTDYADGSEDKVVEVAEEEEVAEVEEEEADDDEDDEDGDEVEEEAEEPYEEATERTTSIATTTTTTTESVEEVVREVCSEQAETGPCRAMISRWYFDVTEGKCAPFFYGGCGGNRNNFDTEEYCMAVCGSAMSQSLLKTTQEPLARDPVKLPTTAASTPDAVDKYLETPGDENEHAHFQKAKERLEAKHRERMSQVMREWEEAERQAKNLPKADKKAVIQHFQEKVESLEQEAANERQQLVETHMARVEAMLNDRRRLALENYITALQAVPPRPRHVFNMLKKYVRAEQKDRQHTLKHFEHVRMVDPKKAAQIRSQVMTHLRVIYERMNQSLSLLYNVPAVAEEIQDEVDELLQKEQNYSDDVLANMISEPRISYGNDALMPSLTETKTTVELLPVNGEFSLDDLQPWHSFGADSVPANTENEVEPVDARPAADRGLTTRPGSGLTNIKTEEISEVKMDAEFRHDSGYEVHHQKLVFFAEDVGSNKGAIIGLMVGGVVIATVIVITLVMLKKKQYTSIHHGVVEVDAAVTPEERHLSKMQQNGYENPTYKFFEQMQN
# MT-CYB: MT-CYB (Plasmodium falciparum, UniProt Q02768)
# Sequence of UniProt Q02768 (whole entry, looked up): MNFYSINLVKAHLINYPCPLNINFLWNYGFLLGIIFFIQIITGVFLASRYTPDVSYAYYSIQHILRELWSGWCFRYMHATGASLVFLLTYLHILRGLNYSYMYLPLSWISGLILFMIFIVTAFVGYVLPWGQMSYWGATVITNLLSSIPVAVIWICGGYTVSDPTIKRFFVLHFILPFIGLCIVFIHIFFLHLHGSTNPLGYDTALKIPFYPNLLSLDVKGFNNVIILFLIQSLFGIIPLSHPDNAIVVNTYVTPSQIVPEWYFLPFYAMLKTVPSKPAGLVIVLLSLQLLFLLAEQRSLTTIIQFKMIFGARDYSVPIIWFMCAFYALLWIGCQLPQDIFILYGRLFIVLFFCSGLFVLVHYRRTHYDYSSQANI
# SMPD1: Sphingomyelin phosphodiesterase (SMPD1, Homo sapiens, UniProt P17405)
# Sequence of UniProt P17405 (whole entry, looked up): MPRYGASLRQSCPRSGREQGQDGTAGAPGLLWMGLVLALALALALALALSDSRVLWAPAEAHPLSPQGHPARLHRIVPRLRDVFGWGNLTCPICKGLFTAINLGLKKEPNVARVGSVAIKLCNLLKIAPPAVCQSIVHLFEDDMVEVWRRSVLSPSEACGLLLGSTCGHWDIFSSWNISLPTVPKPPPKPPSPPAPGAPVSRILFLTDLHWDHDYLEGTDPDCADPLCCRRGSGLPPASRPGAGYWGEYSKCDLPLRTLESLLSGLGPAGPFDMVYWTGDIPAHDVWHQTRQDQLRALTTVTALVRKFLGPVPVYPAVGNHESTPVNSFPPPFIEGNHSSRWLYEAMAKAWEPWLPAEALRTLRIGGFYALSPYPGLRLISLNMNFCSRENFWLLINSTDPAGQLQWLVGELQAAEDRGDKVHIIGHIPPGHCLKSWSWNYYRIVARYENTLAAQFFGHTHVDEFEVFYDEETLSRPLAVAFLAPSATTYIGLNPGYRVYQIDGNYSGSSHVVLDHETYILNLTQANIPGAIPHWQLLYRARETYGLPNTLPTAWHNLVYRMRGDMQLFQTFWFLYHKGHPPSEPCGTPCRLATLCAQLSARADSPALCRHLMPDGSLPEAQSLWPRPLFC
# PPIA: Peptidyl-prolyl cis-trans isomerase A (PPIA, Homo sapiens, UniProt P62937)
# Sequence of UniProt P62937 (whole entry, looked up): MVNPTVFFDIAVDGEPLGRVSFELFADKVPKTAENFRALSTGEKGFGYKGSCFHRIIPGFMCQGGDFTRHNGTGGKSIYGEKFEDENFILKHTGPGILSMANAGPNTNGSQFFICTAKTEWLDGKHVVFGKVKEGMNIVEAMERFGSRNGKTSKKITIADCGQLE
# PIP4K2C: Phosphatidylinositol 5-phosphate 4-kinase type-2 gamma (PIP4K2C, Homo sapiens, UniProt Q8TBX8)
# Sequence of UniProt Q8TBX8 (whole entry, looked up): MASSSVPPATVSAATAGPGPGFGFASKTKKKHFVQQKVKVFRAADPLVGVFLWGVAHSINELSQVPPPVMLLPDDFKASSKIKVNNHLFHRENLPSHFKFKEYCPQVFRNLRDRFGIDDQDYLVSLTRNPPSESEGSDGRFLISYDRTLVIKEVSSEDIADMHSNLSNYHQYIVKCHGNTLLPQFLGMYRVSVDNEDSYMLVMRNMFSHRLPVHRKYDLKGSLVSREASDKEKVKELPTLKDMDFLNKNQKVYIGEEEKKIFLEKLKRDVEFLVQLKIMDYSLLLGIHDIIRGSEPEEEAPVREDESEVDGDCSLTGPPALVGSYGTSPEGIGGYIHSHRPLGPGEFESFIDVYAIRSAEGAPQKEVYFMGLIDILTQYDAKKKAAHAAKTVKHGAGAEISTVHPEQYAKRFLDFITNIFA
# Sequence of UniProt Q00195 (whole entry, looked up): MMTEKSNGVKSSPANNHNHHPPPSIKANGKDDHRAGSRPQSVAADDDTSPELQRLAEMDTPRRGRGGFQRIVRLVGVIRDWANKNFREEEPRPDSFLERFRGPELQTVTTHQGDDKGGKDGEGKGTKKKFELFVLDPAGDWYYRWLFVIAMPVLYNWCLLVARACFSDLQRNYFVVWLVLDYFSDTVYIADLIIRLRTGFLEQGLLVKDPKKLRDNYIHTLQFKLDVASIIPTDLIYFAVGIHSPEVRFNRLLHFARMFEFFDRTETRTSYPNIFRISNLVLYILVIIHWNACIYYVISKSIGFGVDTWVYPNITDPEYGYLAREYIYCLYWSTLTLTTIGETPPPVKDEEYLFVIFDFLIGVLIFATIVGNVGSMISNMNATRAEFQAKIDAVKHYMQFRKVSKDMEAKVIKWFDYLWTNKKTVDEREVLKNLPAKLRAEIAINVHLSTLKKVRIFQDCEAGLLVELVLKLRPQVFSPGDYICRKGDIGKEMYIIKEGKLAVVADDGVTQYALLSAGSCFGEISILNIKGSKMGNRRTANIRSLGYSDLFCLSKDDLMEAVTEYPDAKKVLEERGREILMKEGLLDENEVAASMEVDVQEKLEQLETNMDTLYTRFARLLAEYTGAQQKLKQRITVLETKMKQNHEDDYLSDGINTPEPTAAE
# Sequence of UniProt P09211 (whole entry, looked up): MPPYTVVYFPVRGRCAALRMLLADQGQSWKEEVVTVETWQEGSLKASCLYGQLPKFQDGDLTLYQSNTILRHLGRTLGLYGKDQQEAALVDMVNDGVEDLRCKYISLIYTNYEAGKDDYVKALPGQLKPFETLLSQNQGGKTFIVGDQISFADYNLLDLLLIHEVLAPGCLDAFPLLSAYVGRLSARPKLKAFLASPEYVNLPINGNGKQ
# Sequence of UniProt P50750 (whole entry, looked up): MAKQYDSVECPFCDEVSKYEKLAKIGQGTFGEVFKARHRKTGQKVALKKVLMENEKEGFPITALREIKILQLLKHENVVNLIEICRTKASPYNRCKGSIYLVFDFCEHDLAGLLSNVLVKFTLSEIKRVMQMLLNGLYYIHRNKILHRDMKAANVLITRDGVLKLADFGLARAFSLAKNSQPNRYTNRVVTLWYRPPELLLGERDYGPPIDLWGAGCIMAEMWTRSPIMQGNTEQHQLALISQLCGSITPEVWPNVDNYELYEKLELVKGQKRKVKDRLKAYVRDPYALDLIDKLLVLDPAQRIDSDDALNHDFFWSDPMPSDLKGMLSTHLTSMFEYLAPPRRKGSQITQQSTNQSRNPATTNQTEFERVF
Compound,target,test,test system,conditions,inhibition
CC[C@H](C)[C@H](NC(=O)[C@@H](NC(=O)[C@@H](N)Cc1ccccc1)C(C)C)C(=O)N[C@@H](C)C(N)=O,APP,"amyloid aggregation, inhibitor, fluorescence",,"4 µM, 24 h",66.2%
CCCCCCCC(=O)OC[C@H](CO)OC(=O)CCCCCCC,"Cnga2 (Rattus norvegicus, UniProt Q00195)","cGMP-activated current, inside-out patch, Xenopus oocytes",,"0.5 µM, together with: cGMP 2 µM",72%
Cc1cccc(C)c1C(=O)OCC(=O)[C@H](CCCCN)NC(=O)[C@H](CCCN=C(N)N)NC(=O)OCc1ccccc1,"Cathepsin B (CTSB, Homo sapiens, UniProt P07858)","peptide library cleavage, MSP-MS",,"64 nM, 1 h, pH 7.2",inhibited
CC(C)C[C@H](NC(=O)[C@@H](NC(=O)[C@@H](N)C(C)C)C(C)C)C(=O)N[C@@H](C)C(N)=O,APP,"amyloid aggregation, inhibitor, fluorescence",,"2 µM, 24 h",42.2%
CC(C)(C)c1cnc(CSc2cnc(NC(=O)C3CCNCC3)s2)o1,"CDK9 (Homo sapiens, UniProt P50750)","probe labeling, KiNativ live-cell profiling",MOLT-4,0.25 µM,34.1%
CC[C@H](C)[C@H](NC(=O)[C@@H](NC(=O)[C@H](N)C(C)C)C(C)C)C(=O)N[C@@H](C)C(N)=O,APP,"amyloid aggregation, inhibitor, fluorescence",,"2 µM, 24 h",64.7%
COCCN(C)c1ccc(C(=O)Nc2ccccc2)cc1NS(=O)(=O)Cc1ccccc1.O=C(O)C(F)(F)F,MT-CYB,"enzyme activity, inhibitor",,0.5 µM,56.2%
Clc1ccc(SCCOCCN2CCCCCC2)cc1.O=C(O)C(=O)O,SMPD1,inhibitor,,"concentration not given, pH 6.5, together with: sphingomyelin substrate",inhibited
COC(=O)c1cc(Cc2ccc(NCc3ccccc3)c(C(=O)O)c2)ccc1NCc1ccccc1,PPIA,"enzyme activity, inhibitor",,10 µM,6.5%
C=C(Cl)C(=O)Nc1cc(Nc2nc(Nc3cnn(C)c3)c3sccc3n2)c(OC)cc1N(C)CCN(C)C,"EGFR (Homo sapiens, UniProt P00533, L858R/T790M)","enzyme activity, inhibitor, ELISA",,0.1 µM,96.7%
O=C(Nc1ccccc1O)c1ccc(S(=O)(=O)c2ccc(Cl)cc2)cc1,MT-CYB,"enzyme activity, inhibitor",,0.5 µM,65.5%
OCc1cn([C@H]2O[C@H](CO)[C@@H](O)[C@H](O)[C@H]2O)nn1,"GAA (Homo sapiens, UniProt P10253)","enzyme activity, inhibitor, fluorescence",,"1.43 mM, pH 4, lysate",12%
Cc1noc(NS(=O)(=O)c2ccc(NC(=O)c3cc(-c4cccc(Br)c4)nc4ccccc34)cc2)c1C,PPIA,"enzyme activity, inhibitor",,10 µM,3.2%
O=C(/C=C/C1=CC(=O)C(=O)C=C1)OCCc1ccccc1,"GSTP1 (Homo sapiens, UniProt P09211)",enzyme activity,human placenta,"10 to 50 µM, together with: CDNB",70 to 93%
CC[C@H](C)[C@H](NC(=O)[C@@H](NC(=O)[C@@H](N)C(C)C)C(C)C)C(=O)NC(C)(C)C(N)=O,APP,"amyloid aggregation, inhibitor, fluorescence",,"2 µM, 24 h",24.9%
COc1ccc(C2=NN(C(=O)COC(=O)c3ccc(S(C)(=O)=O)c([N+](=O)[O-])c3)C(c3ccco3)C2)cc1 (stereo not drawn),SMPD1,inhibitor,,"concentration not given, pH 6.5, together with: sphingomyelin substrate",inactive
Cc1ccc(C2CC(c3ccccc3O)=NN2c2ccc(S(N)(=O)=O)cc2)cc1 (stereo not drawn),"CA2 (Homo sapiens, UniProt P00918)","enzyme activity, inhibitor, absorbance",,1 mM,< 50%
CN(C)C/C=C/C(=O)Nc1cccc(C(=O)Nc2ccc(Nc3nccc(-c4c(-c5ccccc5)nn5ccccc45)n3)cc2)c1,PIP4K2C,"ATP-biotin probe labeling, KiNativ",A-375,"1 µM, 3 h, first of two sites",-4.4%
CC[C@H](C)[C@H](NC(=O)C(C)(C)NC(=O)[C@@H](N)C(C)C)C(=O)N[C@@H](C)C(N)=O,APP,"amyloid aggregation, inhibitor, fluorescence",,"2 µM, 24 h",52.1%
Cc1cc(NC(=O)c2cccc(NC(=O)/C=C/CN(C)C)c2)ccc1Nc1nccc(-c2cccnc2)n1,PIP4K2C,"ATP-biotin probe labeling, KiNativ",A-375,"1 µM, 3 h, second of two sites",32.2%
CCC[C@H](N)C(=O)N[C@H](C(=O)N[C@H](C(=O)N[C@@H](C)C(N)=O)[C@@H](C)CC)C(C)C,APP,"amyloid aggregation, inhibitor, fluorescence",,"2 µM, 24 h",77.2%
CNC(=O)[C@H](Cc1c[nH]c2ccccc12)NC(=O)[C@@H](CC(=O)NO)CC(C)C,"Matrix metalloproteinase-14, ectodomain (MMP14, Homo sapiens, UniProt P50281)","Aβ40 degradation, immunoblotting",,"10 µM, 24 h, 37 °C",inhibited
CC[C@H](C)[C@H](NC(=O)[C@@H](NC(=O)[C@H]1CCCN1)C(C)C)C(=O)N[C@@H](C)C(N)=O,APP,"amyloid aggregation, inhibitor, fluorescence",,"4 µM, 24 h",52.9%
O=C(CN1C(=O)Cc2c([nH]c3ccc(Br)cc23)-c2ccc(Cl)cc21)N1CCCCC1,"Trypanothione synthetase (Leishmania infantum, UniProt A4I2Z3)",enzyme activity,,30 µM,39%

# A few entries again:
Compound,target,test,test system,conditions,inhibition
OCc1cn([C@H]2O[C@H](CO)[C@@H](O)[C@H](O)[C@H]2O)nn1,"GAA (Homo sapiens, UniProt P10253)","enzyme activity, inhibitor, fluorescence",,"1.43 mM, pH 4, lysate",12%
O=C(Nc1ccccc1O)c1ccc(S(=O)(=O)c2ccc(Cl)cc2)cc1,MT-CYB,"enzyme activity, inhibitor",,0.5 µM,65.5%
C=C(Cl)C(=O)Nc1cc(Nc2nc(Nc3cnn(C)c3)c3sccc3n2)c(OC)cc1N(C)CCN(C)C,"EGFR (Homo sapiens, UniProt P00533, L858R/T790M)","enzyme activity, inhibitor, ELISA",,0.1 µM,96.7%
